Measured values from different studies.
Compare with care: the assays were run in different laboratories. “And” joins repeats or separate records; there may be more than shown. ± marks the error that the study gave.
Lysophospholipase-like protein 1: Lysophospholipase-like protein 1 (Mus musculus, UniProt Q3UFF7)
UniProt Q3UFF7, sequence (whole entry, looked up): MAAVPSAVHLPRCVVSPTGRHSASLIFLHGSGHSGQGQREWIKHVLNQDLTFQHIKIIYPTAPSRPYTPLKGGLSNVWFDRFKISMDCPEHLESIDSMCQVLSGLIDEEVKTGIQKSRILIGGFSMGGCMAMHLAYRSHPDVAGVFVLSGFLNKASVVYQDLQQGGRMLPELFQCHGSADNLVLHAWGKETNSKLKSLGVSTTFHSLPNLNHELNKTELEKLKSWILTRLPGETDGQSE
GLP1R: Glucagon-like peptide 1 receptor (GLP1R, Homo sapiens, UniProt P43220)
UniProt P43220, sequence (whole entry, looked up): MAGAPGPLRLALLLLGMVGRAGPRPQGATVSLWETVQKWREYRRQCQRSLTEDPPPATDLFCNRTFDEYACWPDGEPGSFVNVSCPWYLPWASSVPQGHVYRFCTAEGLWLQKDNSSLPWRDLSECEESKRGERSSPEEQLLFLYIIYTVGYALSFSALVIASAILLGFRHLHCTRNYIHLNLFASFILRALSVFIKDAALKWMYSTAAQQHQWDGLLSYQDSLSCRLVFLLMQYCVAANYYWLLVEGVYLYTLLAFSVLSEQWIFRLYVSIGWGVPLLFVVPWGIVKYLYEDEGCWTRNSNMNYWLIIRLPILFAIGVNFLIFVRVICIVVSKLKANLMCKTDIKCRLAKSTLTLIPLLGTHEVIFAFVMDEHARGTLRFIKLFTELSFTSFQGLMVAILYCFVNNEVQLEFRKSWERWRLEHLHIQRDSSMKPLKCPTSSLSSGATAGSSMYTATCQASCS
UniProt P04756, sequence (whole entry, looked up): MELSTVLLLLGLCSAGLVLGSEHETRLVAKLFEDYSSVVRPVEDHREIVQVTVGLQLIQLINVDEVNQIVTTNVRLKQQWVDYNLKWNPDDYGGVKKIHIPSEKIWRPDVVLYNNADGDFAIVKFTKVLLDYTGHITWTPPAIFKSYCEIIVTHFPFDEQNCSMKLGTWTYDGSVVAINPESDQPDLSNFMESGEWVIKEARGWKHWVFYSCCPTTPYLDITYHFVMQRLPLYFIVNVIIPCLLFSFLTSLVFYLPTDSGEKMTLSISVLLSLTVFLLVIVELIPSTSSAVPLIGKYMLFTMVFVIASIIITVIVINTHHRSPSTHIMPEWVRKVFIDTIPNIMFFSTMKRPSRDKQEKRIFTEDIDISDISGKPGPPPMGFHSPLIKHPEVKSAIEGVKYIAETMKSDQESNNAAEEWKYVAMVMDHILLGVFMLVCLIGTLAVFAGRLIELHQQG
UniProt O49686, sequence (whole entry, looked up): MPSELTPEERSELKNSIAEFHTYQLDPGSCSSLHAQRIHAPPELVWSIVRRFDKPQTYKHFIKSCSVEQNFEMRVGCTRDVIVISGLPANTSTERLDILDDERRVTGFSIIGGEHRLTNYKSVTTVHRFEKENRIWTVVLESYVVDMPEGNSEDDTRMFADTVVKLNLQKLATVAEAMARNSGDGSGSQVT
UniProt P0DMS8, sequence (whole entry, unmodified, looked up): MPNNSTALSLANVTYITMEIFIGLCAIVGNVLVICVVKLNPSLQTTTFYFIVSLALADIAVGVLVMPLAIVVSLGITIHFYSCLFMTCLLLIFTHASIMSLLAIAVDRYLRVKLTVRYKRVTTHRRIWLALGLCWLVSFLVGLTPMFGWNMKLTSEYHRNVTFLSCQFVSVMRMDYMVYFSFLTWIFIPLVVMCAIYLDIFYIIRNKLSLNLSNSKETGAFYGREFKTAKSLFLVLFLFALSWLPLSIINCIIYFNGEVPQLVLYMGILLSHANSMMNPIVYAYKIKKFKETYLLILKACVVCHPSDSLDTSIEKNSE
UniProt P35869, sequence (whole entry, looked up): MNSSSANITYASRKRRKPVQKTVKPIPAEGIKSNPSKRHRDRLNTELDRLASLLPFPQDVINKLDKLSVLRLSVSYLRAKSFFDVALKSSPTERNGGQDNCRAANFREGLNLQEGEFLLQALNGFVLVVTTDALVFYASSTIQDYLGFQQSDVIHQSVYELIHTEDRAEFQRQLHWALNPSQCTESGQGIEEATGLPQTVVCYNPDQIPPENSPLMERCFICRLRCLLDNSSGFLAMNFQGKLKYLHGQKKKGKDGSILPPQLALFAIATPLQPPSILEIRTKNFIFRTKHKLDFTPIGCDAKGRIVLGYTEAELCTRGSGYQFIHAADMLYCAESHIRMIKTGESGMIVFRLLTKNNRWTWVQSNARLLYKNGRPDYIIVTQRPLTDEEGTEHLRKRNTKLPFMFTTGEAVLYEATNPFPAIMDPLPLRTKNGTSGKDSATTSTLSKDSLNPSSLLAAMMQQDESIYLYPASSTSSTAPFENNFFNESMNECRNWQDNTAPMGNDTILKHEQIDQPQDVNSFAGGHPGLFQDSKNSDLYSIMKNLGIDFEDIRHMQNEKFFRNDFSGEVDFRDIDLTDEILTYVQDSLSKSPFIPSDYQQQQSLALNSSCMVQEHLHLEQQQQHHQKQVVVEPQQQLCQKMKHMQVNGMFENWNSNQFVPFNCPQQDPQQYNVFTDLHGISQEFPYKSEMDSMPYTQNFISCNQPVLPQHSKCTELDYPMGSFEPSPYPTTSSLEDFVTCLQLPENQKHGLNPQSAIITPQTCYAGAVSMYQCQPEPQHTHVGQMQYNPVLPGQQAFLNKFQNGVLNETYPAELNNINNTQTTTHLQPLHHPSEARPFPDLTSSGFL
UniProt P17706, sequence (whole entry, looked up): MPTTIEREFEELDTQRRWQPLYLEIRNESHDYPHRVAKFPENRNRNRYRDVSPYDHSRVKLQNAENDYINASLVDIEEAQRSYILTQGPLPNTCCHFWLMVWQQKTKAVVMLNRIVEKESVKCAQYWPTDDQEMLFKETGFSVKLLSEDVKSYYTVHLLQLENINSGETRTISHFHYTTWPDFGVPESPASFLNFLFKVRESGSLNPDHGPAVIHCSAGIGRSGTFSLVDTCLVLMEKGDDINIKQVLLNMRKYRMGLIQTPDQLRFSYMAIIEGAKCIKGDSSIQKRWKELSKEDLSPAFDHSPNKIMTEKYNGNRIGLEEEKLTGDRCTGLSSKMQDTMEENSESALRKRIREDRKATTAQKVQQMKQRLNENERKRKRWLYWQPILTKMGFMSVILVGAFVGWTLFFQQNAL
UniProt P20782, sequence (whole entry, looked up): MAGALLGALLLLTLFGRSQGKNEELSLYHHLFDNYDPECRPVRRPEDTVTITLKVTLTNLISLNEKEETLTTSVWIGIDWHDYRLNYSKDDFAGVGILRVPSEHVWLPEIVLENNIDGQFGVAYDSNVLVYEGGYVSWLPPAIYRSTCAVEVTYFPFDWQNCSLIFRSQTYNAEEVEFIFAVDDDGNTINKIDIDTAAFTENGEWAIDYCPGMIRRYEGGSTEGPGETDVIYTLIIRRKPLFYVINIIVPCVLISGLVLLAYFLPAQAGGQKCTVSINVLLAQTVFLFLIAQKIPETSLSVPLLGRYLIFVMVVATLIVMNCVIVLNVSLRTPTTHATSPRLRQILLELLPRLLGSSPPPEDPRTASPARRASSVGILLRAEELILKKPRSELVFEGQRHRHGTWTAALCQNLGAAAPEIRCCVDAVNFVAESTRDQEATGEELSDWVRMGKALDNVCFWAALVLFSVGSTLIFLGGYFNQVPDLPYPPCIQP
UniProt P02716, sequence (whole entry, looked up): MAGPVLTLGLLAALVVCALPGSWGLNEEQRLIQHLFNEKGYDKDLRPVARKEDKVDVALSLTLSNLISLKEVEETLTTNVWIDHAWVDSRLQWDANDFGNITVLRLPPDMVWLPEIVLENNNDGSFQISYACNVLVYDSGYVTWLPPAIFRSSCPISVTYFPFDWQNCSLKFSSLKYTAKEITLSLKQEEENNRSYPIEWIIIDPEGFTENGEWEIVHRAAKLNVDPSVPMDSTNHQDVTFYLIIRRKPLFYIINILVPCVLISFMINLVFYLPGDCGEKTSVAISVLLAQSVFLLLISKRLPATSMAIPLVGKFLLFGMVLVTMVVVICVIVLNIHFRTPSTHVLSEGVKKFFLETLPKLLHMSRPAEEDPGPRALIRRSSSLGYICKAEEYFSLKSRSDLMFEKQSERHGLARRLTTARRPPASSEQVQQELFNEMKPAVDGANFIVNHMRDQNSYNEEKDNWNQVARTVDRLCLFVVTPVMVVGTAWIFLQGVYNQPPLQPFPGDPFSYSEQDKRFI
UniProt Q9H228, sequence (whole entry, looked up): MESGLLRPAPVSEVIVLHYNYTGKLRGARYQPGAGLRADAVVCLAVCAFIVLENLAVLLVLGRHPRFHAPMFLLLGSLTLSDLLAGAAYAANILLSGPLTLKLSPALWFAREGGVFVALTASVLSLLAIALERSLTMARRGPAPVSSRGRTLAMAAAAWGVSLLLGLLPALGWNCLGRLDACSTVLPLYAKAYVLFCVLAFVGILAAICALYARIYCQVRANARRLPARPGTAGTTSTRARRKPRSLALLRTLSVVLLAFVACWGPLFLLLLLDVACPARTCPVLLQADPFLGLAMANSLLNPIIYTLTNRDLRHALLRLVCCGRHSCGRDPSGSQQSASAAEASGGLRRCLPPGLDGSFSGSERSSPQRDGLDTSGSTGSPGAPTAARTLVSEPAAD
UniProt Q9JJ74, sequence (whole entry, looked up): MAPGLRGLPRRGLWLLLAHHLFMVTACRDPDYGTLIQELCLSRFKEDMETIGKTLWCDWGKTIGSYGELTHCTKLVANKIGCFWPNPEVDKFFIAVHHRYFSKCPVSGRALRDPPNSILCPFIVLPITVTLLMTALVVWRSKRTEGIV
UniProt P25103, sequence (whole entry, looked up): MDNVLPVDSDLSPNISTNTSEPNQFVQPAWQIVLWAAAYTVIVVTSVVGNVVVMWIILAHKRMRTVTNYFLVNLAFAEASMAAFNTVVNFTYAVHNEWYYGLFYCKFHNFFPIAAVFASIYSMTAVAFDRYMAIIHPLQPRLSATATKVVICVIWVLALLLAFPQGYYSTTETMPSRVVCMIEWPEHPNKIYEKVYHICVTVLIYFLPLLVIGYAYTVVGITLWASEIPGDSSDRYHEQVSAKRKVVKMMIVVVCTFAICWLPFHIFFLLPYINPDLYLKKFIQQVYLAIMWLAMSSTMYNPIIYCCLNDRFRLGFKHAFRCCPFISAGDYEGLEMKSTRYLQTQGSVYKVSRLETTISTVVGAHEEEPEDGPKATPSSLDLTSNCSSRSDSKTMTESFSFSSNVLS

target	assay	system	setting	EC50	SMILES
PTPN2 (Homo sapiens, UniProt P17706)	enzyme activity, inhibitor, DiFMUP phosphatase	–	–	0.015 µM	Cn1c(=O)n(C2CCC(=O)NC2=O)c2ccc(C3CCN(CC(=O)Nc4cccc(CS(=O)(=O)N5CC[C@H](Nc6cccc(-c7sc(C(=O)O)c(OCC(=O)O)c7Cl)c6)CC5(C)C)c4)CC3)cc21 (some centres unmarked)
Lysophospholipase-like protein 1	enzyme activity, activator, gel-based ABPP	–	–	> 20 µM	Nc1nc(NCc2ccc(Cl)cc2)nn1S(=O)(=O)c1cccc2cccnc12
PYR1 (Arabidopsis thaliana, UniProt O49686)	phosphatase activity recovery, antagonist	–	together with: HAB1, ABA 5000 nM	6.96 ± 1.63 µM	[N-]=[N+]=Nc1c(C2CC2)cc(CC(=O)NC2(C(=O)O)CCCCC2)cc1C1CC1
TRPA1 (Homo sapiens, UniProt O75762, M912A)	–	–	–	0.18 µM	O=C(NC[C@@H](Cc1ccc(F)cc1)N1CCC(O)(C(F)(F)F)CC1)C1(c2ccc(Cl)cc2)CCCC1
uncharacterized protein (Bos taurus, UniProt E1BM68)	cAMP level, agonist, cAMP luminescence	HEK293 cells	–	126 ± 13.6 µM	CC1=NC(C)C(C)S1 (centres unmarked)
Chrnd/Chrna1/Chrne (Mus musculus, UniProt P02716+P04756+P20782)	channel open probability, agonist	mouse	wild type	11000 µM	C[N+]1(C)CCCC1
GLP1R	reporter gene, agonist, luciferase	–	–	3.98e-06 µM	CC[C@H](C)[C@H](NC(=O)[C@H](Cc1ccccc1)NC(=O)[C@H](CCC(=O)O)NC(=O)[C@H](CCCCN)NC(=O)[C@H](C)NC(=O)[C@H](C)NC(=O)[C@H](CCC(N)=O)NC(=O)CNC(=O)[C@H](CCC(=O)O)NC(=O)[C@H](CC(C)C)NC(=O)[C@H](Cc1ccc(O)cc1)NC(=O)[C@H](CO)NC(=O)[C@H](CO)NC(=O)[C@@H](NC(=O)[C@H](CC(=O)O)NC(=O)[C@H](CO)NC(=O)[C@@H](NC(=O)[C@H](Cc1ccccc1)NC(=O)[C@@H](NC(=O)CNC(=O)[C@H](CCC(=O)O)NC(=O)[C@H](C)NC(=O)[C@H](Cc1c[nH]cn1)NCC(C)C)[C@@H](C)O)[C@@H](C)O)C(C)C)C(=O)N[C@@H](C)C(=O)N[C@@H](Cc1c[nH]c2ccccc12)C(=O)N[C@@H](CC(C)C)C(=O)N[C@H](C(=O)N[C@@H](CCCCN)C(=O)NCC(=O)N[C@@H](CCCNC(=N)N)C(N)=O)C(C)C
TRPM2 (Nematostella vectensis, UniProt A7T1N0, R160C)	agonist	–	–	0.094 ± 0.001 µM	Nc1ncnc2c1ncn2[C@@H]1O[C@H](COP(=O)(O)OP(=O)(O)OC[C@H]2OC(O)[C@H](O)[C@@H]2O)[C@@H](O)[C@H]1OP(=O)(O)O (some centres unmarked)
Calcr/Ramp1 (Rattus norvegicus, UniProt P32214+Q9JJ74)	cAMP accumulation, agonist, HTRF	UMUC3 cells	30 min, 37 °C, 0.1% casein, no albumin	5.4e-06 µM	CC(C)C[C@H](NC(=O)[C@H](CCCN)NC(=O)CNC(=O)[C@@H](NC(=O)[C@H](C)NC(=O)[C@@H]1CSCSC[C@H](NC(=O)CC[C@H](N)C(=O)O)C(=O)N[C@@H](CC(N)=O)C(=O)N[C@@H]([C@@H](C)O)C(=O)N[C@@H](C)C(=O)N[C@@H]([C@@H](C)O)C(=O)N1)[C@@H](C)O)C(=O)N[C@@H](C)C(=O)N[C@@H](CCC(=O)O)C(=O)N[C@@](C)(Cc1ccccc1)C(=O)N[C@@H](CC(C)C)C(=O)N[C@H](C(=O)N[C@@H](CCCNC(=N)N)C(=O)N[C@@H](CO)C(=O)N[C@@H](CO)C(=O)N[C@@H](CC(N)=O)C(=O)N(C)[C@@H](CC(N)=O)C(=O)N[C@@H](Cc1ccccc1)C(=O)NCC(=O)N1CCC[C@H]1C(=O)N[C@@H](CCCCNC(=O)CC[C@H](NC(=O)CC[C@H](NC(=O)CCCCCCCCCCCCCCCCCCC(=O)O)C(=O)O)C(=O)O)C(=O)N[C@@H](CC(C)C)C(=O)N1CCC[C@H]1C(=O)N1CCC[C@H]1C(=O)N[C@H](C(=O)N[C@@H](CCC(=O)O)C(=O)N[C@H](C(=O)NCC(=O)N[C@@H](CO)C(=O)N[C@@H](CC(N)=O)C(=O)N[C@H](C(=O)N[C@@H](Cc1ccc(O)cc1)C(N)=O)[C@@H](C)O)C(C)C)[C@@H](C)O)C(C)C
GHSR (Homo sapiens, UniProt Q92847, A204E)	Gαq dissociation, TRUPATH BRET	HEK293T	–	1.17 µM	COc1ccc(C(=O)c2c(C(=O)NCCCN(C)C)oc3ccc(Cl)cc3c2=O)cc1OC
GLP1R	agonist	human cells	–	2.71 µM	CC(C)(Cn1cc(CNc2ccc(C(=O)NCCC(=O)O)cc2)nn1)c1ccc(Cl)cc1
S1PR5 (Homo sapiens, UniProt Q9H228)	cAMP, agonist, luciferase	–	–	> 10 µM	O=C(Cc1ccc(OCc2ccccc2)cc1)NC1(C(=O)O)CCN(C(=O)c2ccc(-c3cccc(Cl)c3)cc2)CC1
TACR1 (Homo sapiens, UniProt P25103)	cAMP, agonist, BRET	–	–	2 µM	CSCC[C@H](NC(=O)[C@H](CC(C)C)NC(=O)CNC(=O)[C@H](Cc1ccccc1)NC(=O)[C@H](Cc1ccccc1)NC(=O)[C@@H](N)CCC(N)=O)C(N)=O
Lysophospholipase-like protein 1	enzyme activity, activator, gel-based ABPP	–	–	> 20 µM	Nc1nc(NCc2ccc(Cl)cc2)nn1S(=O)(=O)C1CCCCC1
GLP1R	reporter gene, agonist, luciferase	–	–	3.98e-05 µM and 4.2e-05 µM	CC[C@H](C)[C@H](NC(=O)[C@H](Cc1ccccc1)NC(=O)[C@H](CCC(=O)O)NC(=O)[C@H](CCCCN)NC(=O)[C@H](C)NC(=O)[C@H](C)NC(=O)[C@H](CCC(N)=O)NC(=O)CNC(=O)[C@H](CCC(=O)O)NC(=O)[C@H](CC(C)C)NC(=O)[C@H](Cc1ccc(O)cc1)NC(=O)[C@H](CO)NC(=O)[C@H](CO)NC(=O)[C@@H](NC(=O)[C@H](CC(=O)O)NC(=O)[C@H](CO)NC(=O)[C@@H](NC(=O)[C@H](Cc1ccccc1)NC(=O)[C@@H](NC(=O)CNC(=O)[C@H](CCC(=O)O)NC(=O)[C@H](C)NC(=O)[C@H](Cc1c[nH]cn1)NCc1ccc(C2(C(F)(F)F)N=N2)cc1)[C@@H](C)O)[C@@H](C)O)C(C)C)C(=O)N[C@@H](C)C(=O)N[C@@H](Cc1c[nH]c2ccccc12)C(=O)N[C@@H](CC(C)C)C(=O)N[C@H](C(=O)N[C@@H](CCCCN)C(=O)NCC(=O)N[C@@H](CCCNC(=N)N)C(N)=O)C(C)C
AHR (Homo sapiens, UniProt P35869)	reporter gene, agonist, luciferase	–	–	0.139 µM	COC(=O)c1cccc(C(=O)c2n[nH]c3ccccc23)c1
ADORA3 (Homo sapiens, UniProt P0DMS8, I253M)	G protein activation, agonist	–	–	0.047 µM	CNc1ncnc2c1ncn2C1OC(CO)C(O)C1O (centres unmarked)

Excerpt of the above:
target	assay	system	setting	EC50	SMILES
Lysophospholipase-like protein 1	enzyme activity, activator, gel-based ABPP	–	–	> 20 µM	Nc1nc(NCc2ccc(Cl)cc2)nn1S(=O)(=O)c1cccc2cccnc12
